Results of several laboratories.
Lines come from different studies, so protocols differ. Numbers after ± are the reported error.
Sequence of UniProt Q92945 (whole entry, looked up): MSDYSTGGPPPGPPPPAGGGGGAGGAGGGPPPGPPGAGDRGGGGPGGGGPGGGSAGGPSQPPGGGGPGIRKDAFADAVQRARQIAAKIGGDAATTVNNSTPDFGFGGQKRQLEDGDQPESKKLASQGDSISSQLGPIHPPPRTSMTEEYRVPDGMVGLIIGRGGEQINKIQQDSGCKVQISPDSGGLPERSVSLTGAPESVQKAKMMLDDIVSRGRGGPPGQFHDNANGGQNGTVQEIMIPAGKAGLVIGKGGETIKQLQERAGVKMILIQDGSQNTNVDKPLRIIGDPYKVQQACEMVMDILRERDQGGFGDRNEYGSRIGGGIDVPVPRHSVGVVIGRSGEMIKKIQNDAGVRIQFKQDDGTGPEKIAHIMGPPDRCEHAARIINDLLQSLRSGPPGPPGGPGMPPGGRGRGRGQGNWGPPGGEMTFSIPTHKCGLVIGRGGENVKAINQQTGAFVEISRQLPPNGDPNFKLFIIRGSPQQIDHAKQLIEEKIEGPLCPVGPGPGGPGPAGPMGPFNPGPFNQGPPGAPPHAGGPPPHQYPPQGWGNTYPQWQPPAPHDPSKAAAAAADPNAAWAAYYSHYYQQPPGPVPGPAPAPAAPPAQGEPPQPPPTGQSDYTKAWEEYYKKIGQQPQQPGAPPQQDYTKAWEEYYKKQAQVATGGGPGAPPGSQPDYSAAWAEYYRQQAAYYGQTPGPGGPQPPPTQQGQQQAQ
Sequence of UniProt Q13153 (whole entry, looked up): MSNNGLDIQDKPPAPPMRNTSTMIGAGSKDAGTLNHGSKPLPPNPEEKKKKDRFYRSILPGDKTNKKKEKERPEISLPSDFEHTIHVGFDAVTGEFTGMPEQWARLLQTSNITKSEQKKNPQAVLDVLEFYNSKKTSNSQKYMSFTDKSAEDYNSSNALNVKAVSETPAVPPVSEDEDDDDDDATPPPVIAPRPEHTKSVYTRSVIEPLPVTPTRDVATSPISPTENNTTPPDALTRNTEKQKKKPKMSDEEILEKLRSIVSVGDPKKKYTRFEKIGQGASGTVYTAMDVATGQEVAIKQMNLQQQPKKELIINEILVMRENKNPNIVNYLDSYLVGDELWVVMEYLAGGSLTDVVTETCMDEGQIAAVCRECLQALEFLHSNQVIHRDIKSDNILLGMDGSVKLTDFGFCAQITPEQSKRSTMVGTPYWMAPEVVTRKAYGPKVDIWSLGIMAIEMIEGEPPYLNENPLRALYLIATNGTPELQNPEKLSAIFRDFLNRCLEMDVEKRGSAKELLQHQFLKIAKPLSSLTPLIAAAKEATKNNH
Sequence of UniProt P25103 (whole entry, looked up): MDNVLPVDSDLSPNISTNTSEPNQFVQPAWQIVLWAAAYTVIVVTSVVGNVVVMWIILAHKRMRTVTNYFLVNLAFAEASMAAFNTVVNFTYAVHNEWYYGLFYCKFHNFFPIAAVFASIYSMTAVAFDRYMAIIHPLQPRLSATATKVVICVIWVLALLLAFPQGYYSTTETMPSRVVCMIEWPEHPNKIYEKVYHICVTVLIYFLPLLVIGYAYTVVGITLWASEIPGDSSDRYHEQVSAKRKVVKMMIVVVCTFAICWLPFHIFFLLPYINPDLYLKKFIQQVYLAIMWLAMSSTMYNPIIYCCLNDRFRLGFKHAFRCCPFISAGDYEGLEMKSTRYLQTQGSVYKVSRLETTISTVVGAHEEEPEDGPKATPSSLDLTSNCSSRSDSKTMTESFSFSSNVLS

Structure (SMILES) = Cc1sc2c(c1C)C(c1ccc(Cl)cc1)=N[C@@H](CC(=O)Nc1ccc(O)cc1)c1nnc(C)n1-2; tested on = HD-MB03; assay = cell growth; conditions = 168 h, DMSO; quantity = IC50; value = 0.284 µM
Structure (SMILES) = O=C(O)CCCc1ccc(N(CCCl)CCCl)cc1; tested on = 7702 normal human cells; assay = cell growth, CCK-8; conditions = 48 h; quantity = IC50; value = > 50 µM
Structure (SMILES) = C[C@H]1CN(c2n[nH]c3nc(N[C@H]4CC[C@H](NS(=O)(=O)CCC(F)(F)F)CC4)ncc23)CCO1; tested on = KHSRP (Homo sapiens, UniProt Q92945); assay = inhibitor, Kinobeads competition profiling; conditions = 20 µM; how to read = reference: vehicle; quantity = relative abundance; value = 1.22
Structure (SMILES) = [Cl][58Co][Cl]; tested on = HT-29; assay = cell growth; conditions = 24 h; quantity = IC50; value = 110 MBq/mL
Structure (SMILES) = Cc1sc2c(c1C)C(c1ccc(Cl)cc1)=N[C@@H](CC(=O)OC(C)(C)C)c1nnc(C)n1-2; tested on = HD-MB03; assay = cell growth; conditions = DMSO; quantity = IC50; value = 0.337 µM
Structure (SMILES) = O=C1CCc2cc(-c3cccc(OC(=O)[C@H]4[C@H](c5ccccc5)[C@@H](C(=O)O)[C@H]4c4ccccc4)c3)ccc2N1; tested on = RCaP mouse prostate cancer; assay = cytotoxicity, MTT; conditions = 72 h; quantity = IC50; value = 15.6 ± 0.6 µM
Structure (SMILES) = C[C@@H](O)[C@@H](CO)NC(=O)[C@@H](CCCNC(=N)N)NC(=O)[C@@H]1CCCN1C(=O)[C@@H]1CSSC[C@H](NC(=O)[C@H](Cc2ccccc2)NC(=O)CN2CCN(CC(=O)O)CCN(CC(=O)O)CCN(CC(=O)O)CC2)C(=O)N[C@@H](Cc2ccc(O)cc2)C(=O)N[C@@H](Cc2ccccc2)C(=O)N[C@@H](CCC(N)=O)C(=O)N[C@@H](CC(N)=O)C(=O)N1 [gallium-68 labelled]; system = healthy Wistar rat, liver; conditions = intravenous, 8 MBq, 60 min, individual animals; quantity = tissue uptake; value = 0.24 %ID/g
Structure (SMILES) = COc1c(C)c2c(c(O)c1C/C=C(\C)CCC(=O)O)C(=O)OC2; tested on = HT-29; assay = cell proliferation; system = colon cancer; quantity = IC50; value = 1.23 µM
Structure (SMILES) = CC1=C(/C=C/C(C)=C/C=C/C(C)=C/C(=O)O)C(C)(C)CCC1; tested on = HD-MB03; how to read = reference: DMSO; quantity = IC50; value = inactive
Structure (SMILES) = CC[C@H](C)[C@H](NC(=O)[C@H](Cc1ccccc1)NC(=O)[C@H](CCC(=O)O)NC(=O)[C@H](CCCNC(=N)N)NC(=O)[C@H](C)NC(=O)[C@H](C)NC(=O)[C@H](CCC(N)=O)NC(=O)[C@H](CCC(=O)O)NC(=O)[C@H](CCC(=O)O)NC(=O)[C@H](CC(C)C)NC(=O)[C@H](Cc1ccc(O)cc1)NC(=O)[C@H](CO)NC(=O)[C@H](CO)NC(=O)[C@@H](NC(=O)[C@H](CC(=O)O)NC(=O)[C@H](CO)NC(=O)[C@@H](NC(=O)[C@H](Cc1ccccc1)NC(=O)[C@@H](NC(=O)CNC(=O)[C@H](CCC(=O)O)NC(=O)[C@H](C)NC(=O)CCc1c[nH]cn1)[C@@H](C)O)[C@@H](C)O)C(C)C)C(=O)N[C@@H](C)C(=O)N[C@@H](Cc1c[nH]c2ccccc12)C(=O)N[C@@H](CC(C)C)C(=O)N[C@H](C(=O)N[C@@H](CCCNC(=N)N)C(=O)NCC(=O)N[C@@H](CCCNC(=N)N)C(=O)N[C@@H](CCCCNC(=O)COCCOCCNC(=O)COCCOCCNC(=O)CC[C@H](NC(=O)CCCCCCCCCCCCCCCCC(=O)O)C(=O)O)C(=O)NCC(=O)NCC(=O)N[C@@H](CO)C(=O)N[C@@H](CCCCNc1c(NCCCCCN(O)C(=O)CCC(=O)NCCCCCN(O)C(=O)CCC(=O)NCCCCCN(O)C(C)=O)c(=O)c1=O)C(=O)O)C(C)C [zirconium-89 labelled]; system = rat, muscle; conditions = iv, 3 nmol/kg, 72 h, ex vivo; quantity = tissue uptake; value = 0.04 %ID/g
Structure (SMILES) = COc1ccc(N2C(=O)N(c3c(C)cccc3Cl)Cc3cnc(Nc4ccc(C5CCN(C)CC5)cc4OC)nc32)nc1; tested on = PAK1 (Homo sapiens, UniProt Q13153); assay = kinase activity; conditions = 0.5 µM; quantity = inhibition; value = 20%
Structure (SMILES) = COc1cc(C(=O)c2cc3c(-c4ccccc4)c(O)ccc3o2)cc(OC)c1OC; tested on = MOLT-4; assay = cell proliferation; conditions = 72 h; quantity = IC50; value = > 50 µM
Structure (SMILES) = O=C1[O][Pt]2([NH][C@@H]3CCCC[C@H]3[NH]2)[O]C1=O; tested on = HD-MB03; conditions = 7 d, ribociclib combination screen, with: DMSO as partner; quantity = IC50; value = inactive
Structure (SMILES) = N.N.[Cl][Pt][Cl]; tested on = PEER; assay = cell proliferation, CellTiter-Glo; conditions = 72 h; quantity = IC50; value = 8.98 µM
Structure (SMILES) = CC[C@H](C)[C@@H]1NC(=O)[C@@H]2CCCN2C(=O)[C@H](CC(C)C)NC(=O)[C@H](CC(C)C)NC(=O)CNC(=O)[C@@H](NC(=O)[C@@H](NC(=O)[C@H](CC(=O)O)NC(=O)CNC(=O)[C@@H](NC(=O)[C@H](C)NC(=O)CNC(=O)[C@H](CCCCN)NC(=O)[C@H](CC(C)C)NC(=O)[C@H](CC(C)C)NC(=O)[C@H](CCCCN)NC(=O)CNC(=O)[C@@H](NC(=O)[C@@H](N)CC(C)C)C(C)C)C(C)C)C(C)C)CSSC[C@@H](C(=O)O)NC1=O; assay = RNA-seq, measured: Th mRNA; system = mouse traumatic brain injury, frontal cortex and hippocampus; conditions = dose not given; how to read = reference: TBI plus compound vs TBI; quantity = log2 fold change; value = -1.99
Structure (SMILES) = CO[C@H]1C[C@@H]2CC[C@@H](C)[C@@](O)(O2)C(=O)C(=O)N2CCCC[C@H]2C(=O)O[C@H]([C@H](C)C[C@@H]2CC[C@@H](OC(=O)NCCOCCOCCOCCOCCOCCOCCOCCOCCC(=O)N3CCc4cc(Cn5nc(-c6ccc7oc(N)nc7c6)c6c(N)ncnc65)ccc4C3)[C@H](OC)C2)C[C@@H](O)[C@H](C)/C=C(\C)[C@@H](O)[C@@H](OC)C(=O)[C@H](C)C[C@H](C)/C=C/C=C/C=C/1C; assay = dose-escalation trial; system = patients with advanced solid tumours; conditions = intravenous, 1.6 mg/3 mg weekly, grade ≥3; quantity = decreased appetite TEAE incidence; value = 0%
Structure (SMILES) = COc1cc(Nc2ncc(F)c(Nc3ccc4c(n3)NC(=O)C(C)(C)O4)n2)cc(OC)c1OC; tested on = TACR1 (Homo sapiens, UniProt P25103); quantity = IC50; value = > 10 µM
Structure (SMILES) = Cn1ncc(-c2nc(N[C@H]3CC[C@H](N)CC3)ncc2Cl)c1CC1CC1; tested on = AML blasts, primary, RUNX1-mutated; assay = blast expansion; conditions = 7 days, HUVEC co-culture; quantity = IC50; value = 0.017 µM
Structure (SMILES) = O=C1[O][Pt]2([NH][C@@H]3CCCC[C@H]3[NH]2)[O]C1=O; tested on = LoVo; assay = cell viability, MTT; conditions = 72 h; quantity = IC50; value = 1.2 ± 0.13 µM
Structure (SMILES) = CC(=O)N[C@H]1[C@@H](O[C@@H]2O[C@H](C[C@@H](O)[C@H]3O[C@@H](n4ccc(=O)[nH]c4=O)[C@H](O)[C@@H]3O)[C@H](O)[C@H](O)[C@H]2NC(=O)/C=C/CCCCCCCCCC(C)C)O[C@H](CO)[C@@H](O)[C@@H]1O; tested on = breast cancer, MCF-10A and Vero; assay = cell viability, WST-1; conditions = range over all lines; quantity = IC50; value = 0.11 to 0.52 µM
Structure (SMILES) = C=C(C)[C@H]1Cc2c(ccc3c2O[C@@H]2COc4cc(OC)c(OC)cc4[C@@H]2C3=O)O1; tested on = THLE-2 without CYP expression; assay = cytotoxicity; conditions = 48 h; quantity = IC50; value = 0.4 ± 0.1 µM
Structure (SMILES) = CC(=N)S; tested on = mouse primary hepatocytes, 3D culture; assay = MTT; conditions = 96 h; quantity = IC50; value = 241.9 ± 0.279 µM

Excerpt of the above:
Structure (SMILES) = Cc1sc2c(c1C)C(c1ccc(Cl)cc1)=N[C@@H](CC(=O)Nc1ccc(O)cc1)c1nnc(C)n1-2; tested on = HD-MB03; assay = cell growth; conditions = 168 h, DMSO; quantity = IC50; value = 0.284 µM
Structure (SMILES) = O=C1[O][Pt]2([NH][C@@H]3CCCC[C@H]3[NH]2)[O]C1=O; tested on = LoVo; assay = cell viability, MTT; conditions = 72 h; quantity = IC50; value = 1.2 ± 0.13 µM
